# Results collected from several papers.
# Each line is one published result; not all experiments were run side by side. Several values in a cell are separate wells, animals, samples, runs or records. ± gives the spread as reported.
SMILES,test,system,conditions,tissue uptake
CCCC[C@H](NC(=O)CNC(=O)CNC(=O)[C@H](CCCCNC(=O)[C@H](CCN)NC(=O)C(C)c1ccc(CC(C)C)cc1)NC(=O)CN1CCN(CC(=O)O)CCN(CC(=O)O)CCN(CC(=O)O)CC1)C(=O)N[C@H]1CC(=O)NCCCC[C@@H](C(N)=O)NC(=O)[C@H](Cc2c[nH]c3ccccc23)NC(=O)[C@H](CCCNC(=N)N)NC(=O)[C@@H](Cc2ccccc2)NC(=O)[C@H](Cc2c[nH]cn2)NC1=O (some centres unmarked) [lutetium-177 labelled],,"C57 mice, tumour-bearing, pancreas",2 h,0.41 ± 0.09 %ID/g
COc1ccc(Nc2nc(Nc3ccc(OCCOCC[18F])cc3)ncc2Br)cc1,,"ICR mice, S180 tumour-bearing, heart","intravenous, 370 kBq, 120 min",2.61 ± 0.25 %ID/g
O=C(NCC1OC2CCC=CCCC2O1)c1ccc([18F])nc1 (centres unmarked),,"healthy female BALB/c nude mice, brain","intravenous, 7.4 MBq per mouse, 60 min",0.5 ± 0.1 %ID/g
Cc1cc(C)n(CCN(CCN)CCCCCCNC(=O)[C@@H](N)Cc2c[nH]cn2)n1.[99Tc+].[C-]#[O+].[C-]#[O+].[C-]#[O+],,"BALB/c nude mice, A549 xenograft, pancreas","intravenous, 15 min",1.2 ± 0.29 %IA/g
N#C[C@@H]1CCCN1C(=O)CNC(=O)c1ccnc2ccc(OCCCN3CCN(C(=O)CCc4ccc5c(c4)CN4CCN(Cc6cc(CCC(=O)O)ccc6O)CC(=O)[O][Al-]([18F])([O]C(=O)C4)[O]5)CC3)cc12 (some centres unmarked),,"BALB/c nude mice, U-87 MG xenograft, pancreas","1 h, blocking, added: DOTA-FAPI-04 40 nmol/mouse co-injected",0.35 ± 0.17 %ID/g
O=C([O-])CN1CCN(CC(=O)[O-])CCN(CC(=O)NC[C@H]2CC[C@H](C(=O)N[C@H](Cc3cnc4ccccc4c3)C(=O)NCCCC[C@H](NC(=O)N[C@@H](CCC(=O)O)C(=O)O)C(=O)O)CC2)CCN(CC(=O)[O-])CC1.[64Cu+2],ex vivo gamma counting,"22Rv1 tumour-bearing mice, bone","intravenous, 0.74 MBq, 24 h post-injection",3.92 %ID/g
Cc1cc(C)n(CCN(CCN)CCCCCCNC(=O)[C@@H](N)Cc2c[nH]c3ccccc23)n1.[99Tc+].[C-]#[O+].[C-]#[O+].[C-]#[O+],,"BALB/c nude mice A549 xenograft, stomach","intravenous, 15 min",5.3 ± 3.3 %ID/g
COc1ccc2c(c1)C(C)(C)C(/C=C/C1=C(Oc3ccc(C(=O)NCCCCOc4cc(CN(Cc5ccccn5)Cc5ccccn5)cc(CN(Cc5ccccn5)Cc5ccccn5)c4)cc3)C(=C/C=C3/N(CCCCS(=O)(=O)[O-])c4ccc(OC)cc4C3(C)C)CCC1)=[N+]2CCCCS(=O)(=O)[O-].O=[N+]([O-])[O-].O=[N+]([O-])[O-].[99Tc+].[C-]#[O+].[C-]#[O+].[C-]#[O+].[Zn+2],,"BALB/c mice, S. aureus myositis, small intestine with contents",12 h post-injection,2.87 %ID/g and 6.97 %ID/g and 3.92 %ID/g and 5.75 %ID/g
CC(C)C[C@H](NC(=O)[C@@H](CCCCNC(=O)[C@@H](Cc1ccccc1)NC(=O)CCCCCCCNC(=O)CN1CCN(CC(=O)O)CCN(CC(=O)O)CCN(CC(=O)O)CC1)NC(=O)[C@H](Cc1ccc(O)cc1)NC(=O)[C@H](CO)NC(=O)[C@H](Cc1c[nH]c2ccccc12)NC(=O)[C@H](Cc1c[nH]cn1)NC(=O)[C@@H]1CCC(=O)N1)C(=O)N[C@@H](CCCNC(=N)N)C(=O)N1CCC[C@H]1C(=O)NCC(N)=O [indium-111 labelled],,"male athymic nude mice, DU-145 prostate cancer xenograft, spleen","intravenous, dose not given, 1 h, added: unlabeled blocking peptide 10 µg",0.33 ± 0.14 %ID/g
COc1ccc(Nc2nc(Nc3ccc(OCCOCCOCC[18F])cc3)ncc2Br)cc1,,"ICR mice, S180 tumour-bearing, heart","intravenous, 370 kBq, 5 min",2.48 ± 0.18 %ID/g
CCCC[C@H](NC(=O)COCCOCCNC(=O)CN1CCN(CC(=O)O)CCN(CC(=O)O)CC1)C(=O)N[C@H]1CC(=O)NCCCC[C@@H](C(N)=O)NC(=O)[C@H](Cc2c[nH]c3ccccc23)NC(=O)[C@H](CCCNC(=N)N)NC(=O)[C@@H](Cc2ccccc2)NC(=O)[C@H](Cc2c[nH]cn2)NC1=O [fluorine-18 labelled],,"C57 mice B16-F10 melanoma, tumor","intravenous, 0.37 MBq, 1 h",17.4 ± 0.76 %ID/g
CCCC[C@H](NC(=O)CNC(=O)CNC(=O)[C@H](CCCCNC(=O)[C@H](CC(=O)O)NC(=O)C(C)c1ccc(CC(C)C)cc1)NC(=O)CN1CCN(CC(=O)O)CCN(CC(=O)O)CCN(CC(=O)O)CC1)C(=O)N[C@H]1CC(=O)NCCCC[C@@H](C(N)=O)NC(=O)[C@H](Cc2c[nH]c3ccccc23)NC(=O)[C@H](CCCNC(=N)N)NC(=O)[C@@H](Cc2ccccc2)NC(=O)[C@H](Cc2c[nH]cn2)NC1=O (some centres unmarked) [lutetium-177 labelled],,"C57 mice, tumour-bearing, tumor","intravenous, 0.037 MBq, 24 h",10.8 ± 2.89 %ID/g
N#C[C@@H]1CCCN1C(=O)CNC(=O)c1ccnc2ccc(OCCCN3CCN(C(=O)CCc4ccc(O)c(CN5CCN6CC(=O)[O][Al-]([18F])([O]C(=O)C5)[O]c5ccc(CCC(=O)N7CCN(CCCOc8ccc9nccc(C(=O)NCC(=O)N%10CCC[C@H]%10C#N)c9c8)CC7)cc5C6)c4)CC3)cc12 (some centres unmarked),,"BALB/c nude mice, U-87 MG xenograft, heart",1 h,1.97 ± 0.41 %ID/g
CCCC[C@H](NC(=O)CCCCCCCNC(=O)CN1CCN(CC(=O)O)CCN(CC(=O)O)CC1)C(=O)N[C@H]1CC(=O)NCCCC[C@@H](C(N)=O)NC(=O)[C@H](Cc2c[nH]c3ccccc23)NC(=O)[C@H](CCCNC(=N)N)NC(=O)[C@@H](Cc2ccccc2)NC(=O)[C@H](Cc2c[nH]cn2)NC1=O [fluorine-18 labelled],,"C57 mice B16-F10 melanoma, brain","intravenous, 0.37 MBq, 1 h",0.02 ± 0.02 %ID/g

# Repeated from above:
SMILES,test,system,conditions,tissue uptake
O=C([O-])CN1CCN(CC(=O)[O-])CCN(CC(=O)NC[C@H]2CC[C@H](C(=O)N[C@H](Cc3cnc4ccccc4c3)C(=O)NCCCC[C@H](NC(=O)N[C@@H](CCC(=O)O)C(=O)O)C(=O)O)CC2)CCN(CC(=O)[O-])CC1.[64Cu+2],ex vivo gamma counting,"22Rv1 tumour-bearing mice, bone","intravenous, 0.74 MBq, 24 h post-injection",3.92 %ID/g
Cc1cc(C)n(CCN(CCN)CCCCCCNC(=O)[C@@H](N)Cc2c[nH]cn2)n1.[99Tc+].[C-]#[O+].[C-]#[O+].[C-]#[O+],,"BALB/c nude mice, A549 xenograft, pancreas","intravenous, 15 min",1.2 ± 0.29 %IA/g
